Measurements from different studies.
KAT6A winged helix 1, GST fusion: Histone acetyltransferase KAT6A, winged helix 1, GST fusion (KAT6A, Homo sapiens, UniProt Q92794, residues 1-85)
Chain of UniProt Q13283 (whole entry, looked up): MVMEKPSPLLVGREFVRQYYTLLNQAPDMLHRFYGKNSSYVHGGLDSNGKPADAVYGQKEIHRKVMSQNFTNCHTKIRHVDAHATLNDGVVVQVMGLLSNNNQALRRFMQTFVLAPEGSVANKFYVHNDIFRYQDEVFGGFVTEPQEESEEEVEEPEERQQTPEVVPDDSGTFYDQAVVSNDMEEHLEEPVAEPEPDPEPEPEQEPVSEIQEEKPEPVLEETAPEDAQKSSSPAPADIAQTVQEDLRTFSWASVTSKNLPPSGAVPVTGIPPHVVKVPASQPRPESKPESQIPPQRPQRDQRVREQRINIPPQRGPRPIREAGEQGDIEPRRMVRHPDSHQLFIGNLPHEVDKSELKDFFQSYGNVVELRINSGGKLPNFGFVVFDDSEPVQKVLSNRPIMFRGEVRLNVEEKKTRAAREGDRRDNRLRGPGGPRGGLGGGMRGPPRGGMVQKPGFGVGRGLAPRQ

`GGGAGUUCUACAGUCCGACGAUCCCUCAAGUCCUGUGCUACACAUCGUAUGUACCGAAUCGGGGCGGCGGGCGGGAAAGUAUUAUGUUACGCCGUUCGGAUCUGCACUUCCAGUGGAAUUCUCGGGUGUCAAGG` gave a log2 enrichment of 0.27 (Ras GTPase-activating protein-binding protein 1, C-terminal RGG region (G3BP1, Homo sapiens, UniProt Q13283); RNA Bind-n-Seq; RNA, in vitro; 1 µM, whole 134-nt RNA, ends assumed, added: 150 mM KCl; relative to: input library, higher = stronger binding).
The log fluorescence of `GCCTAGCACTTAGGTTTCGGGTATTGGTTAGTGCTAGTCTTGATTCGCTTGACGCTGCTG` is reported as 8.51 z-score (Interferon regulatory factor 5, full length, phosphomimetic (IRF5, Homo sapiens, UniProt Q13568-2, residues 1-514, K96S/S451D/S453D/S456D/S462D); protein-binding microarray; double-stranded DNA, one strand shown, in vitro; 250 nM, 60-bp whole probe, added: salmon DNA 0.4 mg/ml; relative to: random background probes, higher = stronger binding).
For `GGGAGUUCUACAGUCCGACGAUCAAGGUGUGUGCCUCCAUACUCUUGACACCAGUUUUCAGUUGAGGAUUGUUGAGCAUAGCUGGCUUGCCCAAUCUCACAGUGGGUAGGAAGGAGAUGAAGUUUGGAAUCCAUGGAAUUCUCGGGUGCCAA`, “RBNS enrichment (R)” read 0.757 (RNA binding protein fox-1 homolog 2, RRM domain, GST-SBP tag (RBFOX2, Homo sapiens, UniProt O43251-10, residues 100-194); RNA Bind-n-Seq; RNA, in vitro; 365 nM, natural RNA segment, single round, ends assumed; relative to: no-protein control, higher = stronger binding).
The log2 enrichment of `GGGAGUUCUACAGUCCGACGAUCAAGUCCUGUGCUACACAUCGUAUGUACCGAAUCAAAUUUUUAAACCCAAACCCAAAAAAGUAUUAUGUUACGCCGUUCGGAUCUGCACUUUGGAAUUCUCGGGUGUCAAGG` is reported as -0.622 (Ras GTPase-activating protein-binding protein 1, full length (G3BP1, Homo sapiens, UniProt Q13283); RNA Bind-n-Seq; RNA, in vitro; 200 nM, whole 134-nt RNA, ends assumed, added: 150 mM KCl; relative to: input library, higher = stronger binding).
For `CGTAAAGC`, the E-score was 0.18 (KAT6A winged helix 1, GST fusion; protein binding microarray; double-stranded DNA, one strand shown, in vitro; not given, 8-mer, flanks averaged, mean of 2 arrays, mostly near background; relative to: not given, higher = stronger binding).
The fold induction of `PhoQ, residues 284 288 289 292 302 303 AGHLVA` is reported as 0.63 (PhoP, residues 12 14 15 18 19 TTLRV (Escherichia coli, UniProt P23836); Sort-seq, measured: YFP reporter; E. coli; PhoQ-PhoP variant library, added: 10 µM Mg2+; relative to: high Mg2+ state, higher = stronger signaling).
For `CTTTATCC`, the E-score was -0.0968 (KAT6A winged helix 1, GST fusion; protein binding microarray; double-stranded DNA, one strand shown, in vitro; not given, 8-mer, flanks averaged, mean of 2 arrays, mostly near background; relative to: not given, higher = stronger binding).
`GAUUCU`: “6-mer enrichment (R)” 0.848 (TAR DNA-binding protein 43, full length, His tag (TARDBP, Homo sapiens, UniProt Q13148, residues 1-414); RNA Bind-n-Seq; RNA, in vitro; 20 nM, 6-mer, flanks averaged, single round, added: 150 mM LiCl; relative to: input library, higher = stronger binding).

For quick reference, copied from above:
For `CTTTATCC`, the E-score was -0.0968 (KAT6A winged helix 1, GST fusion; protein binding microarray; double-stranded DNA, one strand shown, in vitro; not given, 8-mer, flanks averaged, mean of 2 arrays, mostly near background; relative to: not given, higher = stronger binding).
